Assay results pooled from the literature.
Lines come from different studies, so protocols differ. ± gives the spread as reported.
4'-phosphopantetheinyl transferase PptT: 4'-phosphopantetheinyl transferase PptT (Mycobacterium tuberculosis, UniProt O33336)
Sequence of UniProt O33336 (whole entry, looked up): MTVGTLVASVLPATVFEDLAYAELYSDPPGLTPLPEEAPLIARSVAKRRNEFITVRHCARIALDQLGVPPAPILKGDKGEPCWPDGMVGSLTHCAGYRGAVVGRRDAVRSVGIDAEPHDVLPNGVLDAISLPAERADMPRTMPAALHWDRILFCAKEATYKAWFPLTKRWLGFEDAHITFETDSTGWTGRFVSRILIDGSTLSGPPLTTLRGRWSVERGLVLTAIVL
CHRM3: Muscarinic acetylcholine receptor M3 (CHRM3, Homo sapiens, UniProt P20309)
Sequence of UniProt P33535 (whole entry, unmodified, looked up): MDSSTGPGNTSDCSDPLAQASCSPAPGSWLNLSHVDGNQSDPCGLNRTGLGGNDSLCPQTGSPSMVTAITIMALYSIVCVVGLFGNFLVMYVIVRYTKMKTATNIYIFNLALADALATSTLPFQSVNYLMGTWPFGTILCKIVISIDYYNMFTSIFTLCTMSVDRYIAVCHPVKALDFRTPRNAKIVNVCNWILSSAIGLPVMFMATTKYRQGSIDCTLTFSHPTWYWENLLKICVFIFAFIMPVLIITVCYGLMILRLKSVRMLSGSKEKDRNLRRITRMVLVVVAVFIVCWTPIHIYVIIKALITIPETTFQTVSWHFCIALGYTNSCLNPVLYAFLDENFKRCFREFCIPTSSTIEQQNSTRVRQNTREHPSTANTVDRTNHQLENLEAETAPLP
Sequence of UniProt P20309 (whole entry, looked up): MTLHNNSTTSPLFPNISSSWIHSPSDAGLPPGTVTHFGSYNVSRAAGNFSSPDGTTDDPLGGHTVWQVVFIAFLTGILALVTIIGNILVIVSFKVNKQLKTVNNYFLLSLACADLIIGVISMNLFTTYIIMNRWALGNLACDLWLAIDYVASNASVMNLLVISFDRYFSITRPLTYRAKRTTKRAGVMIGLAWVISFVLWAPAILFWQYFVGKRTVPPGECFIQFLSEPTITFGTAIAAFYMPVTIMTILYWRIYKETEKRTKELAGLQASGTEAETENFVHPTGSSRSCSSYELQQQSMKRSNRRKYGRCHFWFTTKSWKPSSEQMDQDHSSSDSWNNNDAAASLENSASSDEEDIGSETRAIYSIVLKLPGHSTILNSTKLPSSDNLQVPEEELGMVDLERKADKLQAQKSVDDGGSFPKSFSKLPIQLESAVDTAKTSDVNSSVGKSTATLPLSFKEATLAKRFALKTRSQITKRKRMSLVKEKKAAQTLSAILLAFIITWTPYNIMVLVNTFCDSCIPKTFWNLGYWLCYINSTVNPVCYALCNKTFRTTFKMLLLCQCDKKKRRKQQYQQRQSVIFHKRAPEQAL
Sequence of UniProt Q8NET8 (whole entry, unmodified, looked up): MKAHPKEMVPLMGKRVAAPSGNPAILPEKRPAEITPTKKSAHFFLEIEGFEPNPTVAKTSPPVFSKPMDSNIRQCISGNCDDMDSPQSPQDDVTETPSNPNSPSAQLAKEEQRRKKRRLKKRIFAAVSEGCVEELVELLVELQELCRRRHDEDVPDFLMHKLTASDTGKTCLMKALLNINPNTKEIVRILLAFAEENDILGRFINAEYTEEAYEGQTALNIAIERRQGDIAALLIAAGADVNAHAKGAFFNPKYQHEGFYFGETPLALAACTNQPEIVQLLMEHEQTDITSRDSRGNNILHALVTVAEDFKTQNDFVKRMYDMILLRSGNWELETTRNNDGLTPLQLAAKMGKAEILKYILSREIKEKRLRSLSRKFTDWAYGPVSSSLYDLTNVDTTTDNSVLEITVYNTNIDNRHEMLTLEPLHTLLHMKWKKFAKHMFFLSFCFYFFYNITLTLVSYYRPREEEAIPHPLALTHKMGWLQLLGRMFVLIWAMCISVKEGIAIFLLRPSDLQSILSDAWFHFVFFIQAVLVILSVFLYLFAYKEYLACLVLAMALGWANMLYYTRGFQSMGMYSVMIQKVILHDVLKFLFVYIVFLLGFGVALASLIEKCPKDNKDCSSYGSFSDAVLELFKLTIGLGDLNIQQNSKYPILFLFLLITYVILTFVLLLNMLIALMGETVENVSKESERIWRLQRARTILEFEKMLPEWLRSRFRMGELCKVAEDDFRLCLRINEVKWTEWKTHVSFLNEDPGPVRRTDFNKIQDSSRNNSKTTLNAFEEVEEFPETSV
Sequence of UniProt P9WQP3 (whole entry, looked up): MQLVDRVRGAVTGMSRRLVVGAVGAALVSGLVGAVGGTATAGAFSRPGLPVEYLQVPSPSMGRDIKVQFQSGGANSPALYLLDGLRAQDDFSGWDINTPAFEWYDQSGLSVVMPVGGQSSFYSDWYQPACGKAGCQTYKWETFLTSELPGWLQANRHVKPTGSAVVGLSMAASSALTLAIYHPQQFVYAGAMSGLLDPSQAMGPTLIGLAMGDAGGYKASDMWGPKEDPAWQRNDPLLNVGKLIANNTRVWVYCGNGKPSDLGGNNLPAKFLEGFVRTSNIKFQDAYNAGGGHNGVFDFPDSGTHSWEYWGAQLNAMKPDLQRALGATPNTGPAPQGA
Sequence of UniProt P9WK45 (whole entry, looked up): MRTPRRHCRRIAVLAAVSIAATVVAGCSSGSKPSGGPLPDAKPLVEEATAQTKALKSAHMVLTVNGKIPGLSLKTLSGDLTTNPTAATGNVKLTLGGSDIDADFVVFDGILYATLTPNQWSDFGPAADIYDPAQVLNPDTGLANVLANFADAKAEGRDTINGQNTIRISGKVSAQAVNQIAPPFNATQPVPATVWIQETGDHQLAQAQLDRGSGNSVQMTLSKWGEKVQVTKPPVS
Sequence of UniProt Q92800 (whole entry, looked up): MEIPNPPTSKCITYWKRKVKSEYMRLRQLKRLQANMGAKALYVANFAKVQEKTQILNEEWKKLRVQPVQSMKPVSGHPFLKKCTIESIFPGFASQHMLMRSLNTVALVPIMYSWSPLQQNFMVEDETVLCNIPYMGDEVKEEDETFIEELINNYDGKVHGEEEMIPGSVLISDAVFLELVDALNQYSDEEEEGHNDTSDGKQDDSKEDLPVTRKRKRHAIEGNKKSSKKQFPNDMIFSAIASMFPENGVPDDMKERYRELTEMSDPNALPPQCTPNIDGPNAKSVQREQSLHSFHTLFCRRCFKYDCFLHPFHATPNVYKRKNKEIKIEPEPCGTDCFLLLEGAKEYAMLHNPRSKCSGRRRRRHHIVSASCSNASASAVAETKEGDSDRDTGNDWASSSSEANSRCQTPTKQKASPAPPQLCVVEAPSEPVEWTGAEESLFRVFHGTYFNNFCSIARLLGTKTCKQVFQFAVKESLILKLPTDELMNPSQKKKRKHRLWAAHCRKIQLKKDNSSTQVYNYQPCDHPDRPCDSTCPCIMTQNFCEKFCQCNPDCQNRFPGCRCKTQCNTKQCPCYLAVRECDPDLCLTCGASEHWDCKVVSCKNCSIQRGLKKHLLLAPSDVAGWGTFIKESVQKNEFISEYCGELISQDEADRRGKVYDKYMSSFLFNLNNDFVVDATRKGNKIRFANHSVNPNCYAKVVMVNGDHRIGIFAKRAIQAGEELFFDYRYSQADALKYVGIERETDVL
Sequence of UniProt Q9HAC7 (whole entry, looked up): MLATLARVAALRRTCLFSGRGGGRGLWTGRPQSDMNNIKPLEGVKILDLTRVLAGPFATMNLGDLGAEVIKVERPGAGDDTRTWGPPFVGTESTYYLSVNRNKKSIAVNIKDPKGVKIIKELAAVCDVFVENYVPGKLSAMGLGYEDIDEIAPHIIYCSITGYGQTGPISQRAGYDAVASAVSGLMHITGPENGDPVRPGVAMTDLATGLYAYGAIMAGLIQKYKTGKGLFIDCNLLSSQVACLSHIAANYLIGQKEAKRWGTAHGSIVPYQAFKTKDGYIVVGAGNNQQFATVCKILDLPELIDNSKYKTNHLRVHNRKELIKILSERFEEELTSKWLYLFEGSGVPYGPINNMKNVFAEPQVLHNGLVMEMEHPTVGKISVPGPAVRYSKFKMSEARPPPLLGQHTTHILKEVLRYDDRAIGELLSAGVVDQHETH
Sequence of UniProt Q01959 (whole entry, looked up): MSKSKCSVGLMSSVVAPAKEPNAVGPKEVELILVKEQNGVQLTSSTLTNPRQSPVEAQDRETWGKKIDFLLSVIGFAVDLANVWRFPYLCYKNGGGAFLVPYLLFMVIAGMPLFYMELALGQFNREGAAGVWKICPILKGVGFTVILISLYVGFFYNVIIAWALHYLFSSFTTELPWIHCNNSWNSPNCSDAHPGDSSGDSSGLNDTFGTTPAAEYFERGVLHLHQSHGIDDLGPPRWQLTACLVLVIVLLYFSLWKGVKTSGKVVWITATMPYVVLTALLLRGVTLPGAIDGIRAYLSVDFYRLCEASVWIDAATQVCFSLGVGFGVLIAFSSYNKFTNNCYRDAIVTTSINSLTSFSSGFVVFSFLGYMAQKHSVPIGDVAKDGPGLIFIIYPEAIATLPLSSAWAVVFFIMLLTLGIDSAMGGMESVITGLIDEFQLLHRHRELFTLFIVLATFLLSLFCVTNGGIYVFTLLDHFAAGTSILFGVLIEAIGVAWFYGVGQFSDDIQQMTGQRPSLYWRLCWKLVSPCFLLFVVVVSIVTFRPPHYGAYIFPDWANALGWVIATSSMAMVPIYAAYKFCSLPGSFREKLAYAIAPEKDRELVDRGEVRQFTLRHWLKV

| SMILES | target | assay | system | conditions | measurement | result |
| --- | --- | --- | --- | --- | --- | --- |
| CCNc1c(Nc2c(CC)cccc2CC)c(=O)c1=O | 4'-phosphopantetheinyl transferase PptT | inhibitor | – | – | IC50 | > 100 µM |
| Clc1cc(Cl)cc(N2CCNCC2)c1 | CHRM3 | ERK1/2 phosphorylation, agonist | CHO cells | – | EC50 | > 20 µM |
| CN[C@@H](C)Cc1ccccc1 | Sodium-dependent dopamine transporter (SLC6A3, Homo sapiens, UniProt Q01959) | peak current, two-electrode voltage clamp | Xenopus oocytes expressing hDAT | 1 min, -60 mV | EC50 | 0.64 ± 0.15 µM |
| CCCCC(=O)N(Cc1ccc(-c2ccccc2-c2nnn[nH]2)cc1)[C@H](C(=O)O)C(C)C | Succinyl-CoA:glutarate CoA-transferase (SUGCT, Homo sapiens, UniProt Q9HAC7) | enzyme activity, inhibitor, fluorometric coupled | – | pH 7.5, 100 mM HEPES-NaOH buffer | IC50 | 18 µM |
| Clc1cccc(N2CCNCC2)c1Cl | CHRM3 | ERK1/2 phosphorylation, agonist | CHO cells | – | EC50 | > 20 µM |
| CCNC(=N[N+](=O)[O-])NC(=O)Nc1c(CC)cccc1CC | 4'-phosphopantetheinyl transferase PptT | inhibitor | – | – | IC50 | > 100 µM |
| CCNC(CC)C(=O)c1ccc2c(c1)OCO2 (centres unmarked) | Sodium-dependent serotonin transporter (Slc6a4, Rattus norvegicus, UniProt P31652) | – | – | rat | EC50 | 1.02 ± 0.26 µM |
| Nc1nc(O)c2ncn([C@@H]3O[C@H](COP(=O)(O)OP(=O)(O)C[P+]([O-])(O)O)[C@@H](O)[C@H]3O)c2n1 | uncharacterized protein (Vibrio cholerae, UniProt A0A0X1KYD0) | – | – | – | Kd | 47.1 µM |
| CCCCCCCCCCCC(CC1OC(=O)C1C(C)C)OC(=O)C(CC(C)C)NC(=O)OCc1ccccc1 (centres unmarked) | fbpA (Mycobacterium tuberculosis, UniProt P9WQP3) | enzyme activity, inhibitor, 4-MUH hydrolysis fluorescence | – | pH 7.5, 4 mM trehalose, added: 50 µM 4-methylumbelliferyl heptanoate | EC50 | 34 ± 22 µM |
| COc1cc(C)[nH]c(=O)c1CNC(=O)c1c(C)n([C@H](C)C2CCN(CC(F)(F)F)CC2)c2ccccc12 | Histone-lysine N-methyltransferase EZH1, in PRC2 complex (EZH1, Homo sapiens, UniProt Q92800) | differential scanning fluorimetry | – | extrapolated from Tm, added: activator peptide | Ki | 0.031 µM |
| CCNC(=N)NC(=O)Nc1ccc2ccccc2c1 | 4'-phosphopantetheinyl transferase PptT | inhibitor | – | – | IC50 | > 100 µM |
| COC(=O)/C=C/C(=O)N[C@@H]1CC[C@@]2(O)[C@H]3Cc4ccc(O)c5c4[C@@]2(CCN3CC2CC2)[C@H]1O5 | Mu-type opioid receptor (Oprm1, Rattus norvegicus, UniProt P33535, K303E) | reversible binding, radioligand saturation binding | N2a membranes | added: [3H]compound | Kd | 0.00998 ± 0.00364 µM |
| CCNC(=N)NC(=O)Nc1ccc(C(F)(F)F)cc1 | 4'-phosphopantetheinyl transferase PptT | inhibitor | – | – | IC50 | > 100 µM |
| CCCc1cc(O)c2c(c1)OC(C)(C)[C@@H]1CCC(C)=C[C@@H]21 | Transient receptor potential cation channel subfamily V member 3 (TRPV3, Homo sapiens, UniProt Q8NET8, L563F) | calcium uptake, agonist | HEK293S | mutant L563F, site 1 | EC50 | > 100 µM |
| CCNC(=N)NC(=O)Nc1cccc2ccccc12 | 4'-phosphopantetheinyl transferase PptT | inhibitor | – | – | IC50 | 68.2 µM |
| CCCCCCC(CCCCCCCCCCC(=O)O)N(C)c1ccc([N+](=O)[O-])c2nonc12 (centres unmarked) | lprG (Mycobacterium tuberculosis, UniProt P9WK45) | binding | – | – | Kd | 20 µM |
| Oc1cccc([C@]23CCC[C@H]([C@H]2O)N(CC=Cc2ccccc2)CC3)c1 | Mu-type opioid receptor (Oprm1, Rattus norvegicus, UniProt P33535) | agonist | C6 cells expressing µ-opioid receptor, cell membranes | – | EC50 | 0.0019 µM |

For quick reference, copied from above:
| SMILES | target | assay | system | conditions | measurement | result |
| --- | --- | --- | --- | --- | --- | --- |
| CCNC(=N)NC(=O)Nc1cccc2ccccc12 | 4'-phosphopantetheinyl transferase PptT | inhibitor | – | – | IC50 | 68.2 µM |
| CCNC(=N[N+](=O)[O-])NC(=O)Nc1c(CC)cccc1CC | 4'-phosphopantetheinyl transferase PptT | inhibitor | – | – | IC50 | > 100 µM |
